Measured values of several laboratories.
Each line is one published result; not all experiments were run side by side. “And” joins repeats or separate records; there may be more than shown. Numbers after ± are the reported error.
UniProt Q9Y5L0, sequence (whole entry, looked up): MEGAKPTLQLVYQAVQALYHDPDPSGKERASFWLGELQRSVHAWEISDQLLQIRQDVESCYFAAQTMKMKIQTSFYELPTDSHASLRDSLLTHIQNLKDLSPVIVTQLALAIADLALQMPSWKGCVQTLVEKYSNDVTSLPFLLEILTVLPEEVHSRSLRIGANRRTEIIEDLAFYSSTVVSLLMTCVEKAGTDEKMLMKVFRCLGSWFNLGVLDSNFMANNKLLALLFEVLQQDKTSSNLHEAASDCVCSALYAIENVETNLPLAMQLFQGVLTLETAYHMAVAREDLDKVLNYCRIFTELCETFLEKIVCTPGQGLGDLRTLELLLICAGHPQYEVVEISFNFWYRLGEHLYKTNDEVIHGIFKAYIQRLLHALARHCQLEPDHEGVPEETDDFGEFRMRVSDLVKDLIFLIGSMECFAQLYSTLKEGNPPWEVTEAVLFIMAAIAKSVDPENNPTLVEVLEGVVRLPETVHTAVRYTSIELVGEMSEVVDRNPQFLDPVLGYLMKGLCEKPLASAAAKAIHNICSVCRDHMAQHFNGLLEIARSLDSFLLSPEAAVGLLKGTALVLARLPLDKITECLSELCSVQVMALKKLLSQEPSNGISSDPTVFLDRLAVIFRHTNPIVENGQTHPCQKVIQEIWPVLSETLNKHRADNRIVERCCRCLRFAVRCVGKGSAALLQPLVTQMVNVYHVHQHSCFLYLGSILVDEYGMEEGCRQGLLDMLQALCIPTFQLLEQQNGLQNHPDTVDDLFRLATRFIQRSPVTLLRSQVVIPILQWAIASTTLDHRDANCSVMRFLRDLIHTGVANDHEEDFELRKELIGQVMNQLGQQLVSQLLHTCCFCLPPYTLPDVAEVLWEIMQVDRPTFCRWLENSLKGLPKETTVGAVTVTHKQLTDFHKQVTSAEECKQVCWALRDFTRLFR

O=C1Nc2cc3[nH]nc(-c4ccncc4)c3cc2CN1Cc1ccccc1
patients with dyspnoea (CTCAE v4.03; advanced solid tumour patients; intravenous, 7.2 mg/kg, schedules 1/2): 0%

Cc1nonc1Cn1nnc2c(N3CC[C@H](O)C3)nc(C(C)(C)C)nc21
half-life (C57BL/6 mice; oral, 2.8 mg/kg): 2.15 h

CC(C)C(=O)OC[C@H]1O[C@@H](n2ccc(NO)nc2=O)[C@H](O)[C@@H]1O
bench-top stability (rat amniotic fluid dialysate; 250 ng/mL, 6 h, room temperature, high concentration, together with: NHC 1000 ng/mL): 102 ± 2.21%

CC1(C)C(/C=C(\Cl)C(F)(F)F)C1C(=O)OC(C#N)c1cccc(Oc2ccccc2)c1 (stereo not drawn)
enzyme contribution to clearance (item: CYP3A5; human, age 6 months): 0.05%

CN1CCN(S(=O)(=O)c2cc([N+](=O)[O-])ccc2N(CCOS(C)(=O)=O)CCOS(C)(=O)=O)CC1
concentration (NSG mice female, brain; intraperitoneal, 10 mg/kg, 0.5 h): 74 nM

CCCCCCCCCCCCCCCC(=O)N[C@@H](CCC(=O)NCCCC[C@H](NC(=O)[C@H](CC(=O)O)NC(=O)[C@H](CO)NC(=O)[C@@H](NC(=O)[C@H](Cc1ccccc1)NC(=O)[C@@H](NC(=O)CNC(=O)[C@H](CCC(N)=O)NC(=O)[C@H](CO)NC(=O)[C@@H](N)Cc1c[nH]cn1)[C@@H](C)O)[C@@H](C)O)C(=O)N[C@@H](CO)C(=O)N[C@@H](CCC(=O)O)C(=O)N[C@@H](Cc1ccc(O)cc1)C(=O)N[C@@H](CC(C)C)C(=O)N[C@@H](CC(=O)O)C(=O)N[C@@H](CO)C(=O)N[C@@H](CCC(=O)O)C(=O)N[C@@H](CCCNC(=N)N)C(=O)N[C@@H](C)C(=O)N[C@@H](CCCNC(=N)N)C(=O)N[C@@H](CC(=O)O)C(=O)N[C@@H](Cc1ccccc1)C(=O)N[C@H](C(=O)N[C@@H](C)C(=O)N[C@@H](Cc1c[nH]c2ccccc12)C(=O)N[C@@H](CC(C)C)C(=O)N[C@@H](CCC(=O)O)C(=O)N[C@@H](C)C(=O)NCC(=O)NCC(=O)O)C(C)C)C(=O)O
treatment-related adverse events (item: Headache; humans CrCl 20 to 30 mL/min; subcutaneous, 100 µg single dose): 25%

CC[C@H](C)[C@H](NC(=O)[C@H](CC(C)C)NC(=O)[C@H](Cc1c[nH]c2ccccc12)NC(=O)[C@H](CCC(N)=O)NC(=O)[C@@H](NC(=O)[C@H](Cc1ccccc1)NC(=O)[C@H](C)NC(=O)[C@H](CCCCNC(=O)COCCOCCNC(=O)COCCOCCNC(=O)CC[C@H](NC(=O)CCCCCCCCCCCCCCCCCCC(=O)O)C(=O)O)NC(=O)[C@H](CCC(N)=O)NC(=O)[C@H](C)NC(=O)[C@@H](NC(=O)[C@H](CCCCN)NC(=O)[C@H](CC(=O)O)NC(=O)[C@H](CC(C)C)NC(=O)C(C)(C)NC(=O)[C@@H](NC(=O)[C@H](CO)NC(=O)[C@H](Cc1ccc(O)cc1)NC(=O)[C@H](CC(=O)O)NC(=O)[C@H](CO)NC(=O)[C@@H](NC(=O)[C@H](Cc1ccccc1)NC(=O)[C@@H](NC(=O)CNC(=O)[C@H](CCC(=O)O)NC(=O)C(C)(C)NC(=O)[C@@H](N)Cc1ccc(O)cc1)[C@@H](C)O)[C@@H](C)O)[C@@H](C)CC)[C@@H](C)CC)C(C)C)C(=O)N[C@@H](C)C(=O)NCC(=O)NCC(=O)N1CCC[C@H]1C(=O)N[C@@H](CO)C(=O)N[C@@H](CO)C(=O)NCC(=O)N[C@@H](C)C(=O)N1CCC[C@H]1C(=O)N1CCC[C@H]1C(=O)N1CCC[C@H]1C(=O)N[C@@H](CO)C(N)=O
peak-to-trough ratio (human, plasma; subcutaneous, 15 mg group, week 8, geometric mean; relative to: peak over trough concentration): 1.94

C[C@]1(CO)Cc2ncn(-c3ccc(C#N)c(Cl)c3)c2C(=O)O1
subjects with drug-related TEAEs (investigator-assessed; human; 80 mg multiple doses, fasted): 22.2%

CCCCN1CCC(COC(=O)c2ccc(N)c(O[11CH3])c2)CC1
degradation (rhesus monkey plasma; 30 min): 20%

C=CCNc1c(O)cc2c(O)c1C[C@@H](C)C[C@H](OC)[C@H](O)[C@@H](C)/C=C(\C)[C@H](OC(N)=O)[C@@H](OC)/C=C\C=C(/C)C(=O)N2
patients with ALT increase (unresectable or metastatic sarcoma; intravenous, 225 mg/m^2, grade 3-4 lab change): 33%

C=CC(=O)N1CC[C@H](n2nc(C#Cc3cc(OC)cc(OC)c3)c3c(N)ncnc32)C1
adverse drug reaction incidence (patients with advanced solid tumours; oral, dose not given, Malaise, any grade, QD, together with: sevelamer hydrochloride): 9.1%

C=CC(=O)Nc1cc(Nc2nccc(Nc3cc(Cl)c(F)cc3C(C)(C)O)n2)c(OC)cc1N1CC[C@@H](N(C)C)C1
patients with hypokalaemia (human patients; oral, 300 mg, treatment-emergent adverse events): 9.8%

C[C@H]1CN(c2n[nH]c3nc(N[C@H]4CC[C@H](NS(=O)(=O)CCC(F)(F)F)CC4)ncc23)CCO1
remaining binding (Transportin-3 (Homo sapiens, UniProt Q9Y5L0); Kinobeads competition, item: TNPO3; 0.8 µM, unit not given; relative to: vehicle): 1.13

COc1ccc(N=Nc2ccc3[nH]cc(CCNCc4cccc(OC)c4)c3c2)cc1
trans isomer fraction (HPLC; DMSO:PBS 1:1; pH 7.4, after 530 nm irradiation): 93%

CN1CC[C@@H](c2c(O)cc(O)c3c(=O)cc(-c4ccc(C(F)(F)F)cc4Cl)oc23)[C@@H]1CO
patients with adverse event (item: grade 3 urinary incontinence; relapsed or refractory haematologic malignancy patients; oral, dose not given, phase dose escalation, all doses): 5%

CC(C)C[C@H](NC(=O)[C@H](CCCCN)NC(=O)OCC1c2ccccc2-c2ccccc21)C(=O)N[C@H](C(=O)N[C@@H](Cc1ccccc1)C(=O)N[C@@H](Cc1ccccc1)C(=O)N[C@@H](CCCCN)C(=O)NCC(=O)N[C@@H](Cc1ccccc1)C(=O)N[C@@H](C)C(=O)N[C@@H](Cc1c[nH]c2ccccc12)C(=O)N[C@@H](CC(N)=O)C(=O)N[C@H](C(=O)N[C@H]1CSSC[C@@H](C(=O)N[C@@H](Cc2c[nH]cn2)C(=O)N[C@@H](CCCNC(=N)N)C(=O)N[C@@H](CCCNC(=N)N)C(=O)N[C@@H](C)C(=O)N[C@@H](CC(N)=O)C(N)=O)NC(=O)[C@H](C(C)C)NC(=O)[C@H](CCCNC(=N)N)NC(=O)[C@H](C(C)C)NC(=O)CNC(=O)[C@H](CC(N)=O)NC(=O)[C@H](CCCNC(=N)N)NC(=O)[C@H](Cc2ccc(O)cc2)NC(=O)[C@H](C(C)C)NC1=O)C(C)C)C(C)C
peptide remaining (HPLC; trypsin buffer; 0.50 h, 37 °C, together with: trypsin 1 % w/v): 77.6% and 73.2% and 76.1%

CC(=O)c1c(C)c2cnc(Nc3ccc(C4CCN(CCS(C)(=O)=O)CC4)cn3)nc2n(C2CCCC2)c1=O
k_el (human, plasma; oral, 50 mg twice daily, day 21, multiple dose, together with: letrozole): 4.17e-05 s⁻¹

CC(C)[C@@H]1NC(=O)CNC(=O)[C@H](CC(N)=O)NC(=O)[C@H](CCCNC(=N)N)NC(=O)[C@H](Cc2ccc(O)cc2)NC(=O)[C@H](C(C)C)NC(=O)[C@@H](NC(=O)[C@@H](NC(=O)[C@H](CC(N)=O)NC(=O)[C@H](Cc2c[nH]c3ccccc23)NC(=O)[C@H](C)NC(=O)[C@H](Cc2ccccc2)NC(=O)CN)C(C)C)CSSC[C@@H](C(=O)N[C@@H](Cc2cnc[nH]2)C(=O)N[C@@H](CCCNC(=N)N)C(=O)N[C@@H](CCCNC(=N)N)C(=O)N[C@@H](C)C(=O)N[C@@H](CC(N)=O)C(N)=O)NC(=O)[C@H](C(C)C)NC(=O)[C@H](CCCNC(=N)N)NC1=O
basophils (ICR mouse, blood; intramammary, 10 mg/kg, day 5, 3 d dosing): 1.53 ± 0.15%

Cc1cc(C)c(CNC(=O)c2cc(Cl)c3c(c2C)O[C@@](C)([C@H]2CC[C@H](N(C)C)CC2)O3)c(=O)[nH]1
Neutropenia incidence (human, relapsed/refractory NHL; concentration not given, all TEAEs, grade 5): 0%

CC[C@H](C)[C@@H]1NC(=O)[C@@H]2CCCN2C(=O)[C@H](CC(C)C)NC(=O)[C@H](CC(C)C)NC(=O)CNC(=O)[C@@H](NC(=O)[C@@H](NC(=O)[C@H](CC(=O)O)NC(=O)CNC(=O)[C@@H](NC(=O)[C@H](C)NC(=O)CNC(=O)[C@H](CCCCN)NC(=O)[C@H](CC(C)C)NC(=O)[C@H](CC(C)C)NC(=O)[C@H](CCCCN)NC(=O)CNC(=O)[C@@H](NC(=O)[C@@H](N)CC(C)C)C(C)C)C(C)C)C(C)C)CSSC[C@@H](C(=O)O)NC1=O
log2 fold change (RNA-seq, item: Trbc1; mouse, traumatic brain injury model, frontal cortex and hippocampus; dose not given; relative to: TBI alone): -2.83

COc1cc2c(Oc3ccc4[nH]c(C)cc4c3F)ccnc2cc1OCC1(N)CC1
grade 1 or 2 Anorexia (paediatric recurrent refractory sarcoma; 8 mg/kg): 20%

CO[C@H]1C[C@@H]2CC[C@@H](C)[C@@](O)(O2)C(=O)C(=O)N2CCCC[C@H]2C(=O)O[C@H]([C@H](C)C[C@@H]2CC[C@@H](OC(=O)NCCOCCOCCOCCOCCOCCOCCOCCOCCC(=O)N3CCc4cc(Cn5nc(-c6ccc7oc(N)nc7c6)c6c(N)ncnc65)ccc4C3)[C@H](OC)C2)C[C@@H](O)[C@H](C)/C=C(\C)[C@@H](O)[C@@H](OC)C(=O)[C@H](C)C[C@H](C)/C=C/C=C/C=C/1C
TRAE incidence (phase 1 dose escalation, item: mucositis; advanced solid tumour patients; intravenous, 10 mg weekly, any grade): 62.5%

O=[N+]([O-])NC1=NCCN1Cc1ccc(Cl)nc1
final permeate concentration (ultrafiltration; cow milk whey; 20 nM nominal in whole milk): 16.2 nM

O=C(Nc1ccccc1)C1CCN(C(=O)Oc2cccnc2)CC1
subjects with Syncope adverse event (adverse event reporting; healthy women; oral, 100 mg): 0%

CC(C)(C)c1cc(-n2nc3ccccc3n2)c(O)c(C(C)(C)C)c1
mean daily dermal uptake (exposure assessment; human, age 21-60 years; spray sunscreen): 4.31 ng/kg body weight/day

Cn1c(-c2ccc(C(N)=O)cc2F)nnc1C(C)(C)Oc1c(F)cc(Cl)cc1F
gastrointestinal disorder TEAE (human; oral, 30 mg, single ascending dose): 0%

O=c1ccc2ncc(=O)n3c2n1C[C@H]3CN1CCC(NCc2cc3c(cn2)OCCC3)CC1
renal clearance (healthy human volunteers; oral, 1500 mg, single dose alone, geometric mean): 275 mL/min

COc1cc(Nc2ncc(F)c(Nc3ccc4c(n3)NC(=O)C(C)(C)O4)n2)cc(OC)c1OC
IC50 (phorbol ester receptor): > 10 µM

C[C@@H](NC(=O)N1C(=O)[C@H](Cc2ccnc(N)c2)[C@H]1C(=O)O)C1CCCCC1
related decreased WBC (healthy Chinese adults; continuous intravenous infusion, 0.3 mg/kg/h, 5.0 days): 0%

O=[N+]([O-])c1ccc2c(c1)S(=O)(=O)C=C2
mean corpuscular haemoglobin (male C57BL/6 mice, blood; intraperitoneal, 20 mg/kg, day 8, group average): 15.1 pg
